# Published values from different studies.
# Compare with care: the assays were run in different laboratories.
# Target: Ephrin type-A receptor 3 (EPHA3, Homo sapiens, UniProt P29320)
SMILES,assay,conditions,scale,measurement,value
CN1CCN(Cc2ccc(-c3ccc(CO[C@H]4CCC[C@@H]4NC(=O)c4cc(-c5cnn(C)c5)cnc4N)cc3)cc2)CC1,"enzyme activity, inhibitor",0.1 µM,,inhibition,4%
NC(=O)C[C@H]1CCc2sc3ncnc(O[C@H]4CC[C@H](N5CCOCC5)CC4)c3c21,"enzyme activity, inhibitor",10 µM,,inhibition,9%
CNC1C[S+]2CC[S+]3CC[S+](C1)[Ru-4]321([N]=C=S)[n]2c3ccc(OC)cc3c3c4c(c5cc(F)c[n+]1c5c32)C(=O)NC4=O (centres unmarked),KinomeScan,0.1 µM,relative to: untreated,remaining binding,58%
CCn1cc(C(=O)O)c(=O)c2c(N)c(F)c(NC3CCCCC3)cc21,kinase activity,"0.1 µM, with: ATP at Km",,inhibition,-7.6%
CCN1CCN(Cc2ccc(NC(=O)c3ccc(C)c(NC(=O)c4cncc(-c5cccs5)c4)c3)cc2C(F)(F)F)CC1,"binding, competition with immobilised ligand",1 µM,,remaining binding,0.1%
Nc1ncc2c(n1)-c1c([nH]c3ccc(C4=CCOCC4)cc13)CCC2,"binding, competition with immobilised ligand",1 µM,,remaining binding,61%
C=CC(=O)Nc1cccc(-c2cnc3[nH]cc(C(=O)NC(C)(C)C)c3n2)c1,kinase activity,0.1 µM,,inhibition,-4%
Cc1cccc(O[C@H]2CCC[C@@H](C(C)CNCc3ccncc3)C2)c1 (relative stereo),cell-free assay,1 µM,,inhibition,-3%
COc1c(Cl)cccc1Nc1c(-c2ccncc2C#C[C@@]2(C)CCCN2C(=O)/C=C/CN(C)C)[nH]c2c1C(=O)NCC2,"cell-free assay, competition with immobilised ligand",3 µM,,remaining binding,78%
Cc1cnc2nc1Nc1cccc(c1)COC/C=C/COCc1cc(ccc1OCCN1CCOCC1)N2,binding,0.1 µM,,remaining binding,72%
COc1cc(Nc2nccc(-c3cnn4nc(OC)ccc34)n2)cc(C(F)(F)F)c1,"binding, competition with immobilised ligand",1 µM,,remaining binding,100%
CNC(=O)C[C@H](Cc1ccc(C#N)cc1)NC(=O)c1cc(-c2ccc(CN[C@H](C)c3ccc(C)cc3)o2)ccc1Cl,"enzyme activity, inhibitor",1 µM,,activity vs control,107%
CC(C)=CC1OC(C)(C)C2C=C3C(=O)C(Cl)=CC(O)C3C3C(O)C4OC4C(=O)C132 (centres unmarked),"cell-free assay, competition with immobilised ligand",10 µM,,remaining binding,90%
CNC(=O)C1CCN(c2cc(C)c(F)cc2NC(=O)c2ccc(-c3cc(O)ccc3C)c(C)c2)CC1,"binding, competition with immobilised ligand",1 µM,,remaining binding,30%

# For quick reference, copied from above:
SMILES,assay,conditions,scale,measurement,value
COc1c(Cl)cccc1Nc1c(-c2ccncc2C#C[C@@]2(C)CCCN2C(=O)/C=C/CN(C)C)[nH]c2c1C(=O)NCC2,"cell-free assay, competition with immobilised ligand",3 µM,,remaining binding,78%
Cc1cnc2nc1Nc1cccc(c1)COC/C=C/COCc1cc(ccc1OCCN1CCOCC1)N2,binding,0.1 µM,,remaining binding,72%
